Measured values from different studies.
Protocols differ between the studies behind these lines. ± marks the error that the study gave.
STAT3: Signal transducer and activator of transcription 3 (STAT3, Homo sapiens, UniProt P40763)
UniProt P40763, sequence (whole entry, looked up): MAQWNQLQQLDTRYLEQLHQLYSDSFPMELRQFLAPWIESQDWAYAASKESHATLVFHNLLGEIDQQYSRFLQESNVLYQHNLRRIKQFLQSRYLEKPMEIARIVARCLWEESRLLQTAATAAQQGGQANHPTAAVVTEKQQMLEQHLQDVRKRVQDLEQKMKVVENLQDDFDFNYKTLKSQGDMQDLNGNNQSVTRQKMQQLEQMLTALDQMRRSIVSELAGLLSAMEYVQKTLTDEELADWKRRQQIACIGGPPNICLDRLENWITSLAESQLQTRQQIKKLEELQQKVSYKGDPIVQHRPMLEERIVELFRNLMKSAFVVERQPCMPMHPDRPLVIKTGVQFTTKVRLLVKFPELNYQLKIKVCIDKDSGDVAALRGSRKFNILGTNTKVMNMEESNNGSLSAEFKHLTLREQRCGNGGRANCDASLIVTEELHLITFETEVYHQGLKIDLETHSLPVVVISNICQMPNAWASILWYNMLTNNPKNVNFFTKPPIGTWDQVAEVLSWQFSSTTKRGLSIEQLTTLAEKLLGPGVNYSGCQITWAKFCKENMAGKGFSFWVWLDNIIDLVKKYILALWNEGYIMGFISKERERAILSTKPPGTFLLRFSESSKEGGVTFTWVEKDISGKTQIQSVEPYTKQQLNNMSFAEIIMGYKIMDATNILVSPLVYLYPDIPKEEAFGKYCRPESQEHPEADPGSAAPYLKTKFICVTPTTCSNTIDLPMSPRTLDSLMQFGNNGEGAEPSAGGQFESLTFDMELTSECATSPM
STAT3 SH2 domain: Signal transducer and activator of transcription 3, SH2 domain (STAT3, Homo sapiens, UniProt P40763)

For `C/C(=C\C(=O)N[C@@H](CC(C)C)C(=O)N1CC(C)(C)C[C@H]1C(=O)N[C@H](C)CCC(N)=O)c1ccc(OP(=O)(O)O)cc1`, the IC50 was 0.155 ± 0.031 µM (STAT3; phosphopeptide binding, inhibitor, fluorescence polarization).
The Kd of `CC[C@H](C)[C@H](NC(=O)[C@H](Cc1ccc(O)cc1)NC(=O)[C@@H]1CCCN1C(=O)[C@H](C)NC(=O)[C@H](CC(C)C)NC(=O)[C@H](C)NC(=O)CCCCCNC(=O)[C@H](Cc1ccc(O)cc1)NC(=O)[C@H](Cc1c[nH]cn1)NC(=O)[C@H](CCSC)NC(=O)[C@H](CCSC)NC(=O)[C@H](CC(=O)O)NC(=O)[C@@H]1CCCN1C(=O)[C@@H]1CCCN1C(=O)[C@H](Cc1c[nH]c2ccccc12)NC(=O)[C@H](CO)NC(=O)[C@@H](NC(=O)[C@H](Cc1ccc(O)cc1)NC(=O)[C@H](Cc1ccc(O)cc1)NC(C)=O)C(C)C)C(=O)N1CCC[C@H]1C(=O)N[C@@H](Cc1ccc(O)cc1)C(=O)NCC(=O)N[C@@H](CCCNC(=N)N)C(=O)N[C@@H](CCCCN)C(=O)N[C@@H](CCCCN)C(=O)N[C@@H](CCCNC(=N)N)C(=O)N[C@@H](CCCNC(=N)N)C(=O)N[C@@H](CCC(N)=O)C(=O)N[C@@H](CCCNC(=N)N)C(=O)N[C@@H](CCCNC(=N)N)C(=O)N[C@@H](CCCNC(=N)N)C(N)=O` is reported as 18.4 µM (STAT3; binding, MST).
`O=C(Nc1ccc(-c2cnc3cc(C4=CCNCC4)ccn23)cc1)c1ccc([N+](=O)[O-])o1` gave a Kd of 7.55 µM (STAT3; binding, SPR).
`CC(C)C[C@H](NC(=O)c1ccc2ccc(OP(=O)(O)O)cc2c1)C(=O)N1CCC[C@H]1C(=O)N[C@@H](CCC(N)=O)C(=O)N[C@H](C(N)=O)[C@@H](C)O` has an IC50 of > 100 µM (STAT3; SH2 domain binding, fluorescence polarization).
The IC50 of `CC(C)C[C@H](NC(=O)/C=C/c1ccc(OP(=O)(O)O)cc1)C(=O)N1CCC[C@H]1C(=O)N1CCC[C@@H]1CCC(N)=O` is reported as 3.31 ± 0.392 µM (STAT3 SH2 domain; inhibitor, fluorescence polarization).
With `C/C(=C\C(=O)N[C@@H](CC(C)C)C(=O)N(C)CC(=O)N[C@H](C)CCC(N)=O)c1ccc(OP(=O)(O)O)cc1` the IC50 was 1.54 ± 0.034 µM (STAT3; phosphopeptide binding, inhibitor, fluorescence polarization).
`CC(C)C[C@H](NC(=O)/C=C/c1ccc(OP(=O)(O)O)cc1)C(=O)N1CCC[C@H]1C(=O)NC/C=C/C(N)=O` gave an IC50 of 1.11 ± 0.43 µM (STAT3 SH2 domain; inhibitor, fluorescence polarization).
With `CC(C)C[C@H](NC(=O)Cc1c[nH]c2cc(OP(=O)(O)O)ccc12)C(=O)N1CCC[C@H]1C(=O)N[C@@H](CCC(N)=O)C(=O)N[C@H](C(N)=O)[C@@H](C)O` the IC50 was > 100 µM (STAT3; SH2 domain binding, fluorescence polarization).

For quick reference, copied from above:
With `CC(C)C[C@H](NC(=O)Cc1c[nH]c2cc(OP(=O)(O)O)ccc12)C(=O)N1CCC[C@H]1C(=O)N[C@@H](CCC(N)=O)C(=O)N[C@H](C(N)=O)[C@@H](C)O` the IC50 was > 100 µM (STAT3; SH2 domain binding, fluorescence polarization).
